Assay results gathered from unrelated publications.
Protocols differ between the studies behind these lines. “And” joins repeats or separate records; there may be more than shown. ± marks the error that the study gave.

Under “stopping or switching”, `O=C1CCc2ccc(OCCCCN3CCN(c4cccc(Cl)c4Cl)CC3)cc2N1` is recorded as 43% (patients CYP2D6 NM; 6 months).
`Cc1cnc(N2CC3(CCOCC3)C2)c(C(=O)Nc2ccc(C(=O)N3CCc4cc(C(=O)Nc5c(C)cccc5F)sc4-c4ccccc43)cc2)c1` has an inhibition of 48% (measured: IP-10; human RSV infection, nasal wash; dose not given, AUC, ITT-IS population; reference: placebo).
Under “negative activation entropy”, `[Cl-].[Cl-].[Pt+2].[Ru+2].c1ccc(-c2nc3cc4ccccc4cc3nc2-c2ccccn2)nc1.c1cnc2c(c1)ccc1cccnc12.c1cnc2c(c1)ccc1cccnc12` is recorded as 101 ± 4 J/(mol·K) (chloride substitution, UV-vis kinetics; aqueous buffer; concentration not given, pH 7.2, second substitution step, added: guanosine 5'-monophosphate).
`Cc1ccc(C(=O)Nc2ccnc(S(N)(=O)=O)c2)c(N2CCCC(F)(F)CC2)n1` gave a conduction velocity of 100.3 ± 0.89 % baseline (Macaca mulatta, C-nociceptors; intravenous, 0.6 mg/kg bolus then 0.8 mg/kg/h, 30 min).
`CC(C)NCC(O)c1ccc(O)c(O)c1` (stereo not shown) gave a sarcomere length of 1.5 µm (ventricular cardiomyocytes, C57BL/6 mouse; dose not given, 0.852 s).
With `CN(C(=O)n1cnc(-c2ccc[n+]([O-])c2)c1)C1CCCCC1` the AUC(0-tau) was 272 ng·h/mL (measured: OEA; human, plasma; 20 mg once daily, day 10).
Under “relative tumour volume T/C”, `COc1cc(Nc2ncc3c(n2)-c2ccc(Cl)cc2C(c2c(F)cccc2OC)=NC3)ccc1C(=O)O` is recorded as 2.08 (mouse, NB-1771 neuroblastoma xenograft; oral, 5.2 mg/kg, day 21; reference: vehicle).
For `CC(C)[C@H](C(=O)Nc1ccc(C(=O)NO)cc1)c1ccccc1`, “tumour volume change” read 3.85% (volumetric MRI; human, left IAC schwannoma; dose not given, day 23; reference: baseline).
For `N#Cc1ccc2c(c1)[C@H]1CCCN(C(=O)c3ccc4[nH]cnc4c3)[C@H]1C2`, “total urinary corticosteroid excretion” read 188% (T2DM patients with overweight or obesity, urine; oral, 240 mg, day 14, 0-24 h, multiple dosing, adjusted geometric mean; reference: baseline day -1, -24-0 h).
`CC[S+]([O-])c1nc(-c2ccccc2)cc(C(F)(F)F)n1` (stereo not shown) — result for “cells with nuclear SREBP1”: 86.8% and 85.5% and 84.4% and 84% (importin beta-1; SREBP1 nuclear import, high content imaging; HeLa Kyoto; 0.02 µM, 3 h, added: glucose and MG132).
For `Nc1ccn([C@@H]2O[C@H](CO)[C@@H](O)[C@H]2O)c(=O)n1`, the activity score was 3.4 (human iPSC-derived cardiomyocytes; MyBP-C/MYH ratio, plate-normalised SD score; concentration not given, primary screen; direction not given).
`CCO[C@H]1CCN(Cc2c(OC)cc(C)c3[nH]ccc23)[C@H](c2ccc(C(=O)O)cc2)C1` — result for “PNH red cell clone size”: 54.9% (measured: PNH-type erythrocytes; PNH patients, blood; 25 mg/100 mg, week 2, mean).
The activity score of `C[n+]1cc2c3c(ccc2c2ccc4cc5c(cc4c21)OCO5)OCO3` is reported as 8.3 (human iPSC-derived cardiomyocytes; MyBP-C/MYH ratio, plate-normalised SD score; concentration not given, primary screen; direction not given).
`Cn1cc(-c2ccc(-c3cncc(Cl)c3N3CCC4(CCNC4=O)CC3)cc2)cn1` — result for “log2 fold change”: -2.03 (COLO 205; gene expression, microarray, measured: SQLE mRNA; concentration not given, 2 h; reference: untreated cells).
Under “tumour volume difference”, `C=CCn1c(=O)c2cnc(Nc3ccc(N4CCN(C)CC4)cc3)nc2n1-c1ccc2c(n1)[C@@](O)(CC)CC2` is recorded as 186 ± 10.4 mm3 (NCI-H23 xenograft, NCG mice; oral, 80 mg/kg, day 35, once daily x 35).
`Cc1cc(Nc2cc3ncccc3c(N[C@@H]3C[C@H]4CC[C@@H](C3)N4CCC#N)n2)n[nH]1`: “change in partial Mayo” -2.4 (moderate-severe ulcerative colitis patients; 270 mg, day 28, unit not given; reference: baseline).
`OC(CCN1CCCCC1)(c1ccccc1)C1CC2C=CC1C2` (stereo not shown): “EEG power, Beta, change in Fz/Cz” -5.3% (resting-state EEG; healthy elderly humans; oral, 2 mg, eyes open, LS mean; reference: baseline).
`COc1nc(-c2cc(C)c(N[C@@H](C)c3cc(F)cc(F)c3)nn2)ccc1-n1cnc(C)c1` — result for “change in level”: 94% (measured: Aβ40; rat Sprague-Dawley male, plasma; oral, 50 mg/kg daily for 9 days, 4 h after dose; reference: vehicle).
`CN[C@@H]1COc2c(S(=O)(=O)NC(=O)Nc3c4c(cc5c3CCC5)CCC4)cnn2C1` gave an inhibition of 99.7% (measured: IL-18; human participants, whole blood ex vivo; 900 mg twice daily, multiple doses, 48 h, IL-18, circulating, adjusted for, added: LPS/ATP; reference: baseline).
For `c1ccc(-c2n[nH]cc2-c2ccnc3ccccc23)nc1`, “log2 fold change” read 0.749 (kinase binding, competitor, MIB/MS competition, measured: CAK1; Candida albicans cell lysate; 10 µM; reference: DMSO).
For `NC(=O)c1cnc2[nH]ccc2c1N[C@@H]1[C@@H]2CC3C[C@H]1C[C@@](O)(C3)C2`, the percent change was 0.05% (CD4+ memory T cells, flow cytometry; Japanese humans, peripheral blood; 20 mg single dose; reference: baseline).
With `CS(=O)(=O)CCNCc1ccc(-c2ccc3ncnc(Nc4ccc(OCc5cccc(F)c5)c(Cl)c4)c3c2)o1` the ED50 was under 100 mg/kg (tumour growth; NCI-H292, mouse, subcutaneous NCI-H292 xenograft; oral, 21 days daily, lung cancer).

A few entries again:
`CN[C@@H]1COc2c(S(=O)(=O)NC(=O)Nc3c4c(cc5c3CCC5)CCC4)cnn2C1` gave an inhibition of 99.7% (measured: IL-18; human participants, whole blood ex vivo; 900 mg twice daily, multiple doses, 48 h, IL-18, circulating, adjusted for, added: LPS/ATP; reference: baseline).
`OC(CCN1CCCCC1)(c1ccccc1)C1CC2C=CC1C2` (stereo not shown): “EEG power, Beta, change in Fz/Cz” -5.3% (resting-state EEG; healthy elderly humans; oral, 2 mg, eyes open, LS mean; reference: baseline).
`Cn1cc(-c2ccc(-c3cncc(Cl)c3N3CCC4(CCNC4=O)CC3)cc2)cn1` — result for “log2 fold change”: -2.03 (COLO 205; gene expression, microarray, measured: SQLE mRNA; concentration not given, 2 h; reference: untreated cells).
